# Results collected from several papers.
# Each numbered part is a random draw from the data of one study; scales do not carry over between parts. Substitutions count along the parent as printed.

# Series 1
# Target: ABI1, truncated, D143A, DHFR fusion (Arabidopsis thaliana)
# Technique: DHFR PCA, deep sequencing
# Matrix: yeast
# Setting: methotrexate growth selection, single substitutions
# With: (+)-ABA 0.032 µM
# Baseline: wild-type fitted maximum
# Direction: higher = stronger binding
# Starting sequence: PYL1, truncated, DHFR fusion (Arabidopsis thaliana); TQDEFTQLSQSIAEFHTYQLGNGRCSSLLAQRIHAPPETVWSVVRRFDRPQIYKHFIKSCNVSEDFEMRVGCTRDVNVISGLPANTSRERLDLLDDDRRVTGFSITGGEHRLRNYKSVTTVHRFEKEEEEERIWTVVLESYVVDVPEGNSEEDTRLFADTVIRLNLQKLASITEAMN
Substitution,relative binding score [%]
S140C,3.73
F66W,8.51
C60R,5.94
S59P,-3.4
L28P,0.0523
A35Q,0.111
G71Q,-2.95
F15Y,29.4
K54L,-6.39
G102M,0.0762
R111E,2.1
F15T,2.36
T101N,-2.13
D75A,6.23
R123W,-0.147
T1F,16
G108P,1.72
K58P,-0.384
H110M,34.4
G107L,0.757

# Series 2
# Target: Sal-like protein 4, full length isoform A (SALL4, Homo sapiens, UniProt Q9UJQ4, residues 1-1053)
# UniProt Q9UJQ4, sequence (whole entry, looked up): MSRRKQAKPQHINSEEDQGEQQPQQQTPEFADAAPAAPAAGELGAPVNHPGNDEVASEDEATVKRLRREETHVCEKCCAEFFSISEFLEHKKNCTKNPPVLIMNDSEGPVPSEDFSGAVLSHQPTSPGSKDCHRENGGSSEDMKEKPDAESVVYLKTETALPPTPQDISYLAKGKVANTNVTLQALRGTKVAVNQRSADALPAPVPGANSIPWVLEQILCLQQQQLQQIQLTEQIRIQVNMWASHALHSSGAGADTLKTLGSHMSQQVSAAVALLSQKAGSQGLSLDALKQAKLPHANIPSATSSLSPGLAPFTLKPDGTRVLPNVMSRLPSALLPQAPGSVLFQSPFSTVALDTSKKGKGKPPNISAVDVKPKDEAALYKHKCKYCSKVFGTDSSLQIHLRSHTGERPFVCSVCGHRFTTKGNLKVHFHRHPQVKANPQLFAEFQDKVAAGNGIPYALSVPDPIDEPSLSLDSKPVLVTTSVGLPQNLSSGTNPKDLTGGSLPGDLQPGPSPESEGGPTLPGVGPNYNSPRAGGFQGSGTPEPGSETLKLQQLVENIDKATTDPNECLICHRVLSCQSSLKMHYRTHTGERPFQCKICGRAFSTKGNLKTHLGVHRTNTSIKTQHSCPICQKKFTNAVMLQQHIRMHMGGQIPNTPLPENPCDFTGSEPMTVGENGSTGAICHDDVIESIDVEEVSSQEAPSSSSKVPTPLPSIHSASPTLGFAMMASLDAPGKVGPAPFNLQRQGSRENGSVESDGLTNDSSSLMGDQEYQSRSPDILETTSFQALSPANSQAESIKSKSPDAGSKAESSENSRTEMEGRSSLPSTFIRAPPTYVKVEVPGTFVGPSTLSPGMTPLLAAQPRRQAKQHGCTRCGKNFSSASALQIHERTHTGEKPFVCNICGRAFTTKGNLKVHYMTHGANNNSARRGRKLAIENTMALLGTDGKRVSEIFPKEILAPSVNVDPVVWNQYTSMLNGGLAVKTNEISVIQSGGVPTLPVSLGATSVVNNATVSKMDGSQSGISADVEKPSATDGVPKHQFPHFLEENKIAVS
# Technique: universal PBM
# Form: double-stranded DNA, one strand shown
# Matrix: in vitro
# Concentration: 600 nM
# Setting: 8-mer, flanks averaged, mean of replicates
# Direction: higher = stronger binding
Sequence,E-score
AAAACTCT,-0.00069
TTGAACAA,0.139
ATAGCTAC,0.194
AATCATCA,0.281
CCGAGTGC,-0.219
CCCTGAAA,0.0693
CTCTGAGC,-0.219
ACAGACTA,0.0108
CGTAACAA,0.226
ACGATGTC,-0.162
GAAATTTC,-0.07
CCCACTGC,-0.231
GCCGAGCA,-0.379
CGGACCTA,-0.131
AAACGCGA,0.0198
ATTCGTTA,0.209
AAGTCGCG,-0.0693
TCATGGGA,0.00834
TACTTCCA,0.0614
TCCTCAAA,0.082
CAGTGAAC,-0.0596
CTCCGCTA,-0.043
ACTACAGT,0.0266
GACAGTAA,0.0933
TACAGCCA,-0.0826

# Series 3
# Target: Prothrombin, mature alpha-thrombin (F2, Homo sapiens, UniProt P00734)
# Technique: aptamer microarray, sandwich
# Form: DNA with 2'F-ANA
# Matrix: in vitro
# Concentration: 200 nM
# Setting: whole 15-mer aptamer, many near background
# With: Cy3 exosite-II aptamer, 400 nM
# Direction: higher = stronger binding
# Sequence: GGTTGGTGTGGTTGG
Modification,mean fluorescence intensity [a.u.]
2'F-ANA at 1 4 5 8 10 12 13,53.5
2'F-ANA at 2 5 8 10 12 13 15,48
2'F-ANA at 10 11 12 14,109
2'F-ANA at 4 5 6 8 9 10 12 13,47.6
2'F-ANA at 5 6 8 10 11 12 13 14 15,49.6
2'F-ANA at 2 3 7 12 14 15,497
2'F-ANA at 1 3 6 9 10 11 13 15,65.9
2'F-ANA at 1 4 7 8 11 13 14 15,56.6
2'F-ANA at 5 7 8 11 12,158
2'F-ANA at 1 8 11 14 15,63.2
2'F-ANA at 5 6 10 12 13 14,45.7
2'F-ANA at 2 4 8 11 12 14 15,137
2'F-ANA at 1 2 3 4 5 8 10 12 13,54.7
2'F-ANA at 1 6 7 11 15,141
2'F-ANA at 2 3 4 5 6 9 12 14 15,53.4
2'F-ANA at 2 3 4 9 13,462
2'F-ANA at 2 3 5 6 7 8 9 11 12 13,129

# Series 4
# Target: CCNE1, cyclin fold, Cln2 fusion (human)
# Technique: yeast growth competition, sequencing
# Matrix: yeast
# Setting: strong parent motif
# Baseline: not given
# Direction: higher = stronger binding
# Starting sequence: PKN2 docking peptide (human); VSAVRKLDFSDTM; partner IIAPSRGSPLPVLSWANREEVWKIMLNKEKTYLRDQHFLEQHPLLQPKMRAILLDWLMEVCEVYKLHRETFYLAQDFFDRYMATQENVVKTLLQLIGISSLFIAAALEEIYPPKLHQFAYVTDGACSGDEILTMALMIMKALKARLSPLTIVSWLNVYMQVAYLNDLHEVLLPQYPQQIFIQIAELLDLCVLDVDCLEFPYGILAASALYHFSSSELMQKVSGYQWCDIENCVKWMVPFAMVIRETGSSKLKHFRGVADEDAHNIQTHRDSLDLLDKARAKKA
Substitution,normalised enrichment score
VSAVRKLDFSLTM [D11L],4.99
VSAVPKLDFSDTM [R5P],0.399
VQAVRKLDFSDTM [S2Q],4.85
VSAERKLDFSDTM [V4E],0.302
VSAVRKLDHSDTM [F9H],-0.0244
VSAVRKVDFSDTM [L7V],0.434
VSAVRKLDFSQTM [D11Q],4.87
VSAVRKLDNSDTM [F9N],-0.124
VSAVRKLDFSDYM [T12Y],5.68
VSAVRKLDFNDTM [S10N],5.14
VKAVRKLDFSDTM [S2K],6
VSAVRKLDFSTTM [D11T],4.9
VSAQRKLDFSDTM [V4Q],2.23
VSAKRKLDFSDTM [V4K],5.61
VSAVRKLDISDTM [F9I],0.298
VSAVRKLDFADTM [S10A],5.41
VFAVRKLDFSDTM [S2F],4.22

# Series 5
# Molecule: PhoQ, residues 284 288 289 292 302 303 SSTLLI
# Technique: Sort-seq
# Refers to: YFP reporter
# Matrix: E. coli
# Setting: PhoQ-PhoP variant library
# With: 10 µM Mg2+
# Baseline: high Mg2+ state
# Direction: higher = stronger signaling
target,fold induction
"PhoP, residues 12 14 15 18 19 LHHYF (Escherichia coli, UniProt P23836)",11.4
"PhoP, residues 12 14 15 18 19 NFFVT (Escherichia coli, UniProt P23836)",8.58
"PhoP, residues 12 14 15 18 19 VGHWL (Escherichia coli, UniProt P23836)",3.25
"PhoP, residues 12 14 15 18 19 TPWTL (Escherichia coli, UniProt P23836)",1.18

# Series 6
# Target: Transcription factor SOX-2, HMG box (Sox2, Mus musculus, UniProt P48432, residues 41-119)
# UniProt P48432, sequence (41-119, looked up): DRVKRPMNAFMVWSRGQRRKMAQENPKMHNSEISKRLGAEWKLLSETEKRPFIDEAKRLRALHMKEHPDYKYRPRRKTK
# Technique: Spec-seq
# Form: double-stranded DNA, one strand shown
# Matrix: in vitro
# Concentration: not given
# Setting: whole probe, mean of replicates
# Baseline: not given
# Direction: lower = stronger binding
# All sequences stand within: GAGTCGTCTCGTCAGCAC … CCGTAGAGCACTCAGGTC
Sequence,relative binding energy
CATTCCT,0.443 ln ratio
CATACGT,0.116 ln ratio
CATGGCG,0.227 ln ratio
CAGCGTT,1.08 ln ratio
CATGCTA,0.484 ln ratio
TCCCGTT,1 ln ratio
CATTAAG,-0.499 ln ratio
CATTCAT,-2.06 ln ratio
CCAAGTT,0.887 ln ratio
CATAATA,-1.58 ln ratio
CATCGCT,0.693 ln ratio
TTCCGTT,1.08 ln ratio
CGCTGTT,0.0161 ln ratio
TAATGTT,-0.442 ln ratio
TACCGTT,0.768 ln ratio
GTTCGTT,1.12 ln ratio
